Published values from different studies.
Protocols differ between the studies behind these lines. ± gives the spread as reported.
Cell line: HCT-15
Time: 72 h

For CN(C)CCCS(=O)(=O)NC12CCCC(C)(CCC3C1CC3(C)C)C2 (stereo not shown), the IC50 was 13 µM (cell growth or viability, CCK-8).
For [Cl][Au].[Se]=c1n(C23CC4CC(CC(C4)C2)C3)ccn1C12CC3CC(CC(C3)C1)C2, the IC50 was 2.9 µM (cell growth or viability, MTT).
CC(C)c1cccc(C(C)C)c1-n1c2c([n+](-c3c(C(C)C)cccc3C(C)C)[c]1[Au-][Cl])-c1cccc3cccc-2c13 has an IC50 of 22 µM (cell growth or viability, MTT).
With CC(C)Cc1ccc(C(C)C(=O)[O][Pt]([NH2])([NH2])([Cl])([Cl])[O]C(=O)CCCc2ccccc2)cc1 (stereo not shown) the IC50 was 4.98 µM (cell growth or viability, MTT).
CCCC(CCC)C(=O)[O][Pt]([Cl])([Cl])[O]C(C)=O.N.N has an IC50 of 6.36 ± 1.03 µM (cell growth).
CC(C)c1cccc(C(C)C)c1-n1ccn(-c2c(C(C)C)cccc2C(C)C)c1=[Se].[Cl][Ag] gave an IC50 of 5.4 µM (cell growth or viability, MTT).
With Cc1cc(C)c(-n2c3c([n+](-c4c(C)cc(C)cc4C)[c]2[Au-][Cl])-c2cccc4cccc-3c24)c(C)c1 the IC50 was 17 µM (cell growth or viability, MTT).
With CC(=O)Oc1ccccc1C(=O)[O][Pt]([NH2])([NH2])([Cl])([Cl])[O]C(=O)CCCc1ccccc1 the IC50 was 1.86 µM (cell growth or viability, MTT).
CC12CCCC(n3cc(C(=O)N4CC(N)C4)nn3)(C1)C1CC(C)(C)C1CC2 (stereo not shown) has an IC50 of 15.3 µM (cell growth or viability, CCK-8).
With CC(=O)[O][Pt]([Cl])([Cl])[O]C(=O)CCCc1ccccc1.N.N the IC50 was 5.17 ± 0.85 µM (cell growth).
CN1CCCC1CS(=O)(=O)NC12CCCC(C)(CCC3C1CC3(C)C)C2 (stereo not shown) gave an IC50 of 16.9 µM (cell growth or viability, CCK-8).
C=C[CH2][Pd-]([Cl])[Cl].CC(C)c1cccc(C(C)C)c1-n1c[n+](-c2c(C(C)C)cccc2C(C)C)c2c1-c1cccc3cccc-2c13 has an IC50 of 10.4 µM (cell growth or viability, MTT).
With CCCC(CCC)C(=O)[O][Pt]([NH2])([NH2])([Cl])([Cl])[O]C(=O)C(C)c1ccc(CC(C)C)cc1 (stereo not shown) the IC50 was 3.98 µM (cell growth or viability, MTT).
CCCC(CCC)C(=O)[O][Pt]1([O]C(=O)C(CCC)CCC)[O]C(=O)C(=O)[O]1.NC1CCCCC1N has an IC50 of 16.4 ± 1.63 µM (cell growth).
The IC50 of CC12CCCC(n3cc(C(=O)N4CCC(N)CC4)nn3)(C1)C1CC(C)(C)C1CC2 (stereo not shown) is reported as 15.3 µM (cell growth or viability, CCK-8).
The IC50 of Cc1c(C)n(-c2c(C(C)C)cccc2C(C)C)c(=[Se])n1-c1c(C(C)C)cccc1C(C)C.[Cl][Au] is reported as 1.6 µM (cell growth or viability, MTT).
For CC1CN(C(=O)c2cn(C34CCCC(C)(CCC5C3CC5(C)C)C4)nn2)CCN1 (stereo not shown), the IC50 was 11.2 µM (cell growth or viability, CCK-8).
CCCC(CCC)C(=O)[O][Pt]1([OH])[O]C(=O)C(=O)[O]1.NC1CCCCC1N gave an IC50 of 51.5 ± 3.26 µM (cell growth).
The IC50 of CC(C)c1cccc(C(C)C)c1N1CCN(c2c(C(C)C)cccc2C(C)C)C1=[Se].[Cl][Ag] is reported as 3.9 µM (cell growth or viability, MTT).
The IC50 of Cc1cc(C)c(-n2c3c([n+](-c4c(C)cc(C)cc4C)[c]2[Cu-][Cl])-c2cccc4cccc-3c24)c(C)c1 is reported as 9 µM (cell growth or viability, MTT).
CC(C)c1cccc(C(C)C)c1-n1c(Cl)c(Cl)n(-c2c(C(C)C)cccc2C(C)C)c1=[Se].[Cl][Au] has an IC50 of 1.8 µM (cell growth or viability, MTT).
For CC(=O)[O][Pt]([Cl])([Cl])[O]C(C)=O.N.N, the IC50 was 40.2 ± 2.86 µM (cell growth).

A few entries again:
CCCC(CCC)C(=O)[O][Pt]1([O]C(=O)C(CCC)CCC)[O]C(=O)C(=O)[O]1.NC1CCCCC1N has an IC50 of 16.4 ± 1.63 µM (cell growth).
The IC50 of CC12CCCC(n3cc(C(=O)N4CCC(N)CC4)nn3)(C1)C1CC(C)(C)C1CC2 (stereo not shown) is reported as 15.3 µM (cell growth or viability, CCK-8).
The IC50 of Cc1c(C)n(-c2c(C(C)C)cccc2C(C)C)c(=[Se])n1-c1c(C(C)C)cccc1C(C)C.[Cl][Au] is reported as 1.6 µM (cell growth or viability, MTT).
